# Experimental data collected from several papers.
# Each numbered part is a random draw from the data of one study; scales do not carry over between parts.

# Study 1 — technique: protein-binding microarray; form: double-stranded DNA, one strand shown; medium: in vitro; concentration: 2540 nM top; notes: 60-bp whole probe; together with: salmon DNA 0.4 mg/ml; reference: random background probes; reading: higher = stronger binding; shared flanks, not repeated: GCCTAGCAC … GTCTTGATTCGCTTGACGCTGCTG
# Target: Interferon regulatory factor 3, full length, phosphomimetic (IRF3, Homo sapiens, UniProt Q14653, residues 1-427, S386D/S396D/S398D/S402D/T404D/S405D)
# Target sequence (chain): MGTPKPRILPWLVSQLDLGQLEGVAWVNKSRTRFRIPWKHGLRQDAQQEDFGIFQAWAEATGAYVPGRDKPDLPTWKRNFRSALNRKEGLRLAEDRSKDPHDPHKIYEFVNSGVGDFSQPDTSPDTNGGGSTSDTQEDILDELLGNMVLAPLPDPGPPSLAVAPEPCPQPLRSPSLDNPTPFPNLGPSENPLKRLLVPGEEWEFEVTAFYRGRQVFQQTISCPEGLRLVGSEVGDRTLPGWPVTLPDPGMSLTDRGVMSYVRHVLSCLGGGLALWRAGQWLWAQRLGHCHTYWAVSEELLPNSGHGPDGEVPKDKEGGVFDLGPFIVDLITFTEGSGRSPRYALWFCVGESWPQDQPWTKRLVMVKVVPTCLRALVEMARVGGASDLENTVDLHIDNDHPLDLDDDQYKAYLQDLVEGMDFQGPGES
Sequence,fitted relative affinity [z-score]
TTAGGTCTCCTTATCCTGTAGTGCTAG,2.72
TATTGTGCAATTAGAGCCCTGTGCTAG,0.0756
GACGATTTCAGTCTCGCGACGTGCTAG,2.18
TTAGGTTTCGACACTGGGCTAGTGCTA,2.39
TTAGATATCAGACTGGAATAGTGCTAG,0.0894
TTAGGTATCGACGTTCGGTTAGTGCTA,0.0175
TTGTCTCCCCCATCTTGTTCCGTGCTA,1.11
TTAGATTTCTGTTCCGATTAGTGCTAG,4.12
GACGGTATCCTTCTCCGGACGTGCTAG,7.42
TCACTTAGGTTTTCTGGTACTGTGCTA,0.119
GACGGTTCCGACTTTCGGGACGTGCTA,2.64
TTAGGTCTCGGTTTCGGGTAGTGCTAG,3.73
GACGGTTCCCTTTCCCTGACGTGCTAG,5.76
GACGGTTTCCTACTGCTTACGTGCTAG,5.28
TTAGGTATCGGGACTGTGTTAGTGCTA,1.27
TCAGAGATTTTTCTCAAACTGTGCTAG,-0.0724
GACGGTATCGGGACTGGGGATGTGCTA,1.58
TTAGATCTCAATATCGATTAGTGCTAG,0.476
TCATATTTGCTTCAGGTACTGTGCTAG,0.741
GACCATCTCAGTCTCGAGACGTGCTAG,1.61
TCACATTTTTTTTTTCAACTGTGCTAG,0.941
TCAGTTTTCGCTTTCTTACTGTGCTAG,4.74

# Study 2 — technique: competition protein-binding microarray; form: double-stranded DNA, one strand shown; medium: in vitro; concentration: 2 µM; together with: Cbf1 competitor, 0.05 µM; reading: higher = stronger binding
# Target: Phosphate system positive regulatory protein PHO4, full length, GST-tagged (PHO4, Saccharomyces cerevisiae, UniProt P07270, residues 1-312)
# Notes: whole 60-bp probe, lowest competitor level
# Target sequence (chain): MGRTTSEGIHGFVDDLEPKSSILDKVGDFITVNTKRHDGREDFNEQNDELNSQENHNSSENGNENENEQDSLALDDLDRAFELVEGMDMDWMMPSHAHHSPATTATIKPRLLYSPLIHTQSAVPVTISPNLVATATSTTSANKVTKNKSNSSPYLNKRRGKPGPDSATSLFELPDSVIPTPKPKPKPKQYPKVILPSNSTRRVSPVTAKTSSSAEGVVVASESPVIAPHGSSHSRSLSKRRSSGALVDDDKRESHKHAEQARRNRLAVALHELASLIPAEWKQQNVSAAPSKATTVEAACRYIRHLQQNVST
Sequence,fluorescence intensity [a.u.]
CGTCCTAGCGATTGAACCGTGGGTGCCATGAGGAAGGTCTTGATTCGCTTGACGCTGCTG,9330
TAGTATCTTGCATTGCACGGGCTTTATATTGAGCAAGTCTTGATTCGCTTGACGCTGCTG,9170
TTTCTCTTTGAGGTTCACGTTCACTTCTGCTACCATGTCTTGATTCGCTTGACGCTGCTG,7240
ATATCTCATGTAACAAACGTGAAAAAAGCGATGATTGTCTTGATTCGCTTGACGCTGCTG,7740
GTTATAAGTGCTTTTCTCGTGCAAATCCCTGACACTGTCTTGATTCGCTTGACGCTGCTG,5350
CAGGCGTCCACCGCTCCCGTGTCGGTGTAACCAAGGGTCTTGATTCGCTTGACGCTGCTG,4990
TGTGTCAATAACCCCATAATTTGAACTTCTTTCATCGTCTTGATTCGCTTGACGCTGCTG,3140
TGACAGATGCCATGGCGCTACTGTTGTAGTATTGTAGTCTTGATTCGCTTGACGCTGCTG,3840
TACGAAAGATGGAAACACATGCAGAGAATGTGGTCTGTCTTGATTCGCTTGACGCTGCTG,10000
CTAACGAAGGTTTGTAATGTGGGTGACAAGCCAAGTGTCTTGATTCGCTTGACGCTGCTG,4320
AAAGTATTTTACTGGCACGATGCATCCATGGGACTAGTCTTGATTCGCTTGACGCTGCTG,11100
ATGCTACTAGTAACACACATGTACAGCCTGTTGCAAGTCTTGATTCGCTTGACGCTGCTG,8180
CTTCTGTAAATTTGTCGTGTGGGTGGACGCGCCCCGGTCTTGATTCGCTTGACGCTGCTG,4950
AAAGCGGTAATTTGTCTAGTGGGTGCAGATATCTATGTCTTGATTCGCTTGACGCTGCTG,4030
CGGTATGTTCCGAGCCGCGTGCCGAAGGAGGGCAAAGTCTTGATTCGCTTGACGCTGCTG,8940
TATTGTGTCGCCTCGACCGTGATGGTTAGTTCCTATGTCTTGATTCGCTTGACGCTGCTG,4460
TGCGCAACAACTTGTCTAGTGGGTGTATGTCTAGAAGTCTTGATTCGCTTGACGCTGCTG,4710

# Study 3 — technique: RNA Bind-n-Seq; form: RNA; medium: in vitro; concentration: 200 nM; notes: whole 134-nt RNA, ends assumed; together with: 150 mM LiCl; reference: input library; reading: higher = stronger binding; library: 7-deaza-guanosine replaces G
# Target: Fragile X messenger ribonucleoprotein 1, C-terminal low-complexity region (Fmr1, Mus musculus, UniProt P35922)
Sequence,log2 enrichment
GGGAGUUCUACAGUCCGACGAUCUGGCUCUGGUGGCAUGCGGGGAGGAAGAGGUGGCCUCAUGGAUCGUGGUGGUCCCGGUGGAAUGUUCAGAGGUGGCCGUGGUGGAGACAGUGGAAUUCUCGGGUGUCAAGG,-0.173
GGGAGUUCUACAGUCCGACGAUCUCAAGUCCUGUGCUACACAUCGUAUGUACCGAAUCGGAAAGGAAAGGAAAAAGGAAAGUAUUAUGUUACGCCGUUCGGAUCUGCACUUCCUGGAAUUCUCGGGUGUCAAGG,-0.42
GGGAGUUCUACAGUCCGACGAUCUCCUGUGCUACACAUCGUAUGUACCGAAUCGGGAAAAAAGGGAAAAAAGGAAAAAAGGGGAAAGUAUUAUGUUACGCCGUUCGGAUCUGCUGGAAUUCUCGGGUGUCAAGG,-0.846
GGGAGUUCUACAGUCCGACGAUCCAAGUCCUGUGCUACACAUCGUAUGUACCGAAUCGGGAAAAAAAGGGUGGGUGGGAAAGUAUUAUGUUACGCCGUUCGGAUCUGCACUUCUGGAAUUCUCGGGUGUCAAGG,-0.565
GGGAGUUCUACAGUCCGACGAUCCCUCAAGUCCUGUGCUACACAUCGUAUGUACCGAAUCGGUGGUUUUUGGUGGAAAGUAUUAUGUUACGCCGUUCGGAUCUGCACUUCCAGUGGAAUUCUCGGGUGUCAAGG,0.217
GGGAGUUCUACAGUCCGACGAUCCACAGACAACACGCACCCACACAGACACAGAGGGAAGGGGUUGGGAAAGGGACAGGGUGCACAGCAGGGCGGGGUAGGACCCCAGCCCCUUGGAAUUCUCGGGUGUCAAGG,0.503
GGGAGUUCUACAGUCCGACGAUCCACAGACAACACGCACCCACACAGACACAGAGGGAAGGGGUUGGGAUGGGGACAGGGUGCACAGCAGGGCGGGGUAGGACCCCGGCCCCUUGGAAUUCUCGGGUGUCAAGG,-0.455
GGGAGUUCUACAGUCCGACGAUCUGGGAGGUGGAUUUUGUUUAAUUUUUUAGCUCAUUUCCAGGGGUGGGAAUUUUUUUUUAAUAUGUGUCAUGAAUAAAGUUGUUUUUGAAAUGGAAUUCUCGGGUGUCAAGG,0.0765
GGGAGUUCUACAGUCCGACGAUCUGGCCCUGGUGGCAUGCGGGGAGGAAGAGGUGGCCUCAUGGCUCGUGGUGGUCCCGGUGGAAUGUUCAGAGGUGGCCGUGGUGGAGACAGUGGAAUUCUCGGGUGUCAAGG,-0.351
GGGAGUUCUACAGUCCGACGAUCUGGCCCUGGUGGCAUGCGGGGAGGAAGAGGUGGCCUCAUGUAUCGUGGUGGUCCCGGUGGAAUGUUCAGAGGUGGCCGUGGUGGAGACAGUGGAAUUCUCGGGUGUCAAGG,-0.323
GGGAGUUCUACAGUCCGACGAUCUGGAGAUGACAGAAAUGACUGGUGUGUCGCUGAAACGUGGGGCACUGGUUGUCGAAGAUAAUGACAGUGGAGUCCCAGUUGAAGAGACAAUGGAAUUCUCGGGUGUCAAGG,-3.8

# Study 4 — technique: RNA Bind-n-Seq; form: RNA; medium: in vitro; concentration: 20 nM; notes: 6-mer, flanks averaged, single round; together with: 150 mM LiCl; reference: input library; reading: higher = stronger binding
# Target: TAR DNA-binding protein 43, full length, His tag (TARDBP, Homo sapiens, UniProt Q13148, residues 1-414)
Sequence,6-mer enrichment (R)
GAUUCA,0.84
CUGCCG,0.904
UGAUCA,0.849
UCGCAG,0.867
ACAUCC,0.881
ACGAUU,0.815
GGACGA,0.984
UCCGUU,0.931
UUGACG,0.947
ACUCGA,0.794
UGGACC,0.954
UCUCCU,0.951
GUAGCA,0.963
CUCGUC,0.874
AGUAUA,0.951
AUGAUC,0.852
CCUAGA,0.839
CUCUAA,0.86
CACACU,0.888

# Excerpt of the above (study 4):
Sequence,6-mer enrichment (R)
GUAGCA,0.963
CUCGUC,0.874
AGUAUA,0.951
AUGAUC,0.852
CCUAGA,0.839
CUCUAA,0.86
CACACU,0.888
